Measurements of several laboratories.
Each numbered part is a random draw from the data of one study; scales do not carry over between parts. Positions count from the first letter of the parent shown.

Set 1
Target: Ras GTPase-activating protein-binding protein 1, C-terminal RGG region (G3BP1, Homo sapiens, UniProt Q13283)
Chain of UniProt Q13283 (whole entry, looked up): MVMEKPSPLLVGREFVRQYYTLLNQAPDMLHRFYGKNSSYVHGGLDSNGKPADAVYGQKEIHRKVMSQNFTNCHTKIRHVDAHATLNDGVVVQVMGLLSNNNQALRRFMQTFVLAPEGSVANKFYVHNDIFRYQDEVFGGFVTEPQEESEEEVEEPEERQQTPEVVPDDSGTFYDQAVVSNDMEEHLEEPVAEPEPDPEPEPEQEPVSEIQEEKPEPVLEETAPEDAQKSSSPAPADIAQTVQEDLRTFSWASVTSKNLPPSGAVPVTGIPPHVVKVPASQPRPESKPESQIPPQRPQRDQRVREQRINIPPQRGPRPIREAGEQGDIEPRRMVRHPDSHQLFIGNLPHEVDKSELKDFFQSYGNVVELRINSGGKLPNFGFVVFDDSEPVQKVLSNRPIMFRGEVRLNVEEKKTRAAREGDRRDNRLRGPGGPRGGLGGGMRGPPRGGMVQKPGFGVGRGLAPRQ
Method: RNA Bind-n-Seq
Molecule type: RNA
Sample: in vitro
Tested at: 1 µM
Setting: whole 134-nt RNA, ends assumed
Added: 150 mM KCl
Reference: input library
Direction: higher = stronger binding
All sequences stand within: GGGAGUUCUACAGUCCGACGAUC … UGGAAUUCUCGGGUGUCAAGG
Sequence	log2 enrichment
UUAAGACAGUCAUUUUAAAAUGGUGGCUGAAUUUCCCAACCCACCCCCAAACUAAACACUAAGUUUAAUUUUCAGCUCCUCUGUUGGACA	-0.262
UGGGGUAGACCAGUUCCAUGGCACUGAAUAUGUGUGCUGCCCUCAGACAAAGAUUAUUGGAUCUGUGUCAAAAGAAGAGGAAGAGGAAGA	-1.5
CCUCAAGUCCUGUGCUACACAUCGUAUGUACCGAAUCGGGCCGGCCGGGCCGGAAAGUAUUAUGUUACGCCGUUCGGAUCUGCACUUCCA	-1.02
UGGGAGGUGGAUUUUCUUUAUUUUUUUAGCUCAUUUCCAGGGGUGGGAAUUUUUUUUUAAUAUGUGUCAUGAAUAAAGUUGUUUUUGAAA	3.13
GCUGUUCUUGCCUUAGCUGCAUCUUGGACCUCAAGACAAGUAGGAGAACGGACGUUGACCGGUACGGUAAUAGACAGUGGAGAUGGUGUC	-1.58
UCCUCAAGUCCUGUGCUACACAUCGUAUGUACCGAAUCGGGCGGGCGGCGGAAAGUAUUAUGUUACGCCGUUCGGAUCUGCACUUCCAGC	-0.93
UAACUUUAGAGGAGGAUCUGAUGUAUAUGGCAGUGGACGUGGAUUUGGGGAUGGCUAUAAUGGGUAUGGAGGAGGACCUGGAGGUGGCAA	-1.48
UCAAGUCCUGUGCUACACAUCGUAUGUACCGAAUCGGGGAAGGGGAAGGAAGGGGAAAGUAUUAUGUUACGCCGUUCGGAUCUGCACUUC	0.573
UAACUUUAGAGGAGGAUCUGAUGGAUAUGGCAGUGGACGUGGAUUUGGGGAUGGCUAUGAUGGGUAUGGAGGAGGACCUGGAGGUGGCAA	-1.12

Set 2
Target: ABI1, truncated, D143A, DHFR fusion (Arabidopsis thaliana)
Method: DHFR PCA, deep sequencing
Sample: yeast
Setting: methotrexate growth selection, single substitutions
Added: (+)-ABA 0.032 µM
Reference: wild-type fitted maximum
Direction: higher = stronger binding
Starting sequence: PYL1, truncated, DHFR fusion (Arabidopsis thaliana); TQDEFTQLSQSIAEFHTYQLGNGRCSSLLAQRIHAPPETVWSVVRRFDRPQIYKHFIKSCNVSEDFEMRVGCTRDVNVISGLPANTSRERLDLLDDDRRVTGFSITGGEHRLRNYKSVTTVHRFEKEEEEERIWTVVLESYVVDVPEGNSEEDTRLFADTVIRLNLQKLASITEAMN
Substitution	relative binding score
L8D	1.36%
S150D	13.4%
L8T	5.21%
E139R	5.15%
N165R	4.58%

Set 3
Target: Histone acetyltransferase KAT6A, winged helix 2, GST fusion (KAT6A, Homo sapiens, UniProt Q92794, residues 85-181)
Method: protein binding microarray
Molecule type: double-stranded DNA, one strand shown
Sample: in vitro
Tested at: not given
Setting: 8-mer, flanks averaged, mean of 2 arrays, mostly near background
Reference: not given
Direction: higher = stronger binding
Construct (chain): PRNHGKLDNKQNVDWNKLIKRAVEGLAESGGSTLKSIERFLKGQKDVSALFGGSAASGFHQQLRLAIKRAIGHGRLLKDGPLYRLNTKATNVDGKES
Sequence	E-score
GCTACTCC	0.0878
AATAGCTG	-0.00869
ACAGCAGC	0.0805
AAAGCTCT	0.0164
CTGTGCTA	0.133
TCCGATAA	-0.204
AGGGAGAC	-0.0202
ATAACAAT	0.052
CTTATGGA	-0.0913
AACGATAC	-0.0214
CGTATTCC	0.00517
GCGGGACA	0.0664
ACAATCCC	0.0468

Single results of other studies
Molecule	target	test	system	setting	how to read	measurement	value
PhoQ, residues 284 288 289 292 302 303 AEGLLW	PhoP, residues 12 14 15 18 19 LYHSL (Escherichia coli, UniProt P23836)	Sort-seq, item: YFP reporter	E. coli	PhoQ-PhoP variant library, added: 10 µM Mg2+	reference: high Mg2+ state, higher = stronger signaling	fold induction	5.39

A few entries again (set 1):
Sequence	log2 enrichment
GCUGUUCUUGCCUUAGCUGCAUCUUGGACCUCAAGACAAGUAGGAGAACGGACGUUGACCGGUACGGUAAUAGACAGUGGAGAUGGUGUC	-1.58
UAACUUUAGAGGAGGAUCUGAUGUAUAUGGCAGUGGACGUGGAUUUGGGGAUGGCUAUAAUGGGUAUGGAGGAGGACCUGGAGGUGGCAA	-1.48
